Measurements collected from several papers.
Compare with care: the assays were run in different laboratories.

Cc1ncc2n1-c1ccc(Cl)cc1C(c1ccccc1F)=NC2 — result for “subjects with serious treatment-related TEAE”: 0% (human; oral, dose not given).
CC[C@H]1[C@@H](O)[C@@H]2[C@H](CC[C@]3(C)[C@@H]([C@H](C)CCNC(=O)NS(=O)(=O)c4ccc(C(C)(C)C)cc4)CC[C@@H]23)[C@@]2(C)CC[C@@H](O)C[C@@H]12 — result for “subjects with TEAEs”: 20.8% (human; concentration not given, study, with: itraconazole).
Under “subjects with drug-related TEAEs”, C[C@]1(CO)Cc2ncn(-c3ccc(C#N)c(Cl)c3)c2C(=O)O1 is recorded as 11.1% (investigator-assessed; human; 10 mg multiple doses, fasted).
CNC(=O)n1ccc2cc(Oc3ccnc(NC(=O)c4ccc(C5CCN(CCO)CC5)cc4)c3)c(OCCOC)cc21: “subjects with TEAEs” 7.7% (healthy human; oral, 35 mg, fed).
For CC(=O)N(C)[C@H]1CCN(C(=O)c2cnc3c(c2)C[C@](C)(c2ccc(F)cc2)N3)C1, “subjects with AESIs” read 0% (healthy male human; oral, 60 mg once daily, multiple rising dose, with: midazolam).
NCCCC[C@@H]1NC(=O)[C@@H](Cc2c[nH]c3ccccc23)NC(=O)[C@H](c2ccccc2)NC(=O)[C@@H]2C[C@@H](OC(=O)NCCN)CN2C(=O)[C@H](Cc2ccccc2)NC(=O)[C@H](Cc2ccc(OCc3ccccc3)cc2)NC1=O — result for “subjects with adverse event Fatigue”: 9% (healthy human volunteers; 600 µg twice daily).
C=C(C)[C@@H]1CCC(C)=C[C@H]1c1c(O)cc(CCCCC)cc1O: “subjects with Death” 0% (human; 750 mg, trial 17074, with: rifampicin 600 mg).
For Cc1ncc2n1-c1ccc(Cl)cc1C(c1ccccc1F)=NC2, “subjects with TEAEs” read 0% (measured: skin and subcutaneous disorders (SOC); humans; oral, dose not given).
COc1ccc2c(c1)[C@]13CCCC[C@@H]1[C@H](C2)N(C)CC3 — result for “subjects with TEAE leading to death”: 0% (human; oral, dose not given).

Some of these lines once more:
For CC(=O)N(C)[C@H]1CCN(C(=O)c2cnc3c(c2)C[C@](C)(c2ccc(F)cc2)N3)C1, “subjects with AESIs” read 0% (healthy male human; oral, 60 mg once daily, multiple rising dose, with: midazolam).
